Results collected from several papers.
Parts stem from different laboratories: compare values within a part only. Positions count from the first letter of the parent shown.

Series 1
Target: Histone acetyltransferase KAT6A, both winged helices, GST fusion (KAT6A, Homo sapiens, UniProt Q92794, residues 1-181)
Technique: protein binding microarray
Form: double-stranded DNA, one strand shown
Medium: in vitro
Tested at: not given
Setting: 8-mer, flanks averaged, mean of 2 arrays, mostly near background
Reference: not given
Reading: higher = stronger binding
Quantity: E-score
Residues (chain): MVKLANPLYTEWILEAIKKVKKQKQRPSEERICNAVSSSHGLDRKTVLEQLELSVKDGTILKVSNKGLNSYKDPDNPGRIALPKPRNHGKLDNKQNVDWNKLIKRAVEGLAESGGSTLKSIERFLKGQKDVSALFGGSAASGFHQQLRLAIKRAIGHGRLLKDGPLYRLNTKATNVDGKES
AGTGTGCA: -0.222
CGATGGGA: 0.035
CTGGCTAA: -0.153
CGAATACG: 0.153
AAGTATTG: -0.198

Series 2
Target: CCNB2, cyclin fold, Cln2 fusion (human)
Technique: yeast growth competition, sequencing
Medium: yeast
Setting: weak parent motif
Reference: not given
Reading: higher = stronger binding
Quantity: normalised enrichment score
Starting sequence: ORC1 docking peptide (human); PRARKRLELGNLG; partner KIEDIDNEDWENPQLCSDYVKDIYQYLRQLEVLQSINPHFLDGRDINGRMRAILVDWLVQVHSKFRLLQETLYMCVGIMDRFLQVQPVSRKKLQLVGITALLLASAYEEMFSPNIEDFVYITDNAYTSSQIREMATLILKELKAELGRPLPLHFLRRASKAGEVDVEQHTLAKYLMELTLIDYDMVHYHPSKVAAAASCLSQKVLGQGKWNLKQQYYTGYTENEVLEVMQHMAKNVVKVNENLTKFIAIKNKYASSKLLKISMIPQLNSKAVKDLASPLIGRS
R2G: 0.146
G10C: 0.398
G13V: 0.283

Series 3
Target: Sal-like protein 4, full length isoform B (SALL4, Homo sapiens, UniProt Q9UJQ4-2, residues 1-616)
Technique: universal PBM
Form: double-stranded DNA, one strand shown
Medium: in vitro
Tested at: not given
Setting: 8-mer, flanks averaged, mean of replicates
Reading: higher = stronger binding
Quantity: E-score
Target sequence (chain): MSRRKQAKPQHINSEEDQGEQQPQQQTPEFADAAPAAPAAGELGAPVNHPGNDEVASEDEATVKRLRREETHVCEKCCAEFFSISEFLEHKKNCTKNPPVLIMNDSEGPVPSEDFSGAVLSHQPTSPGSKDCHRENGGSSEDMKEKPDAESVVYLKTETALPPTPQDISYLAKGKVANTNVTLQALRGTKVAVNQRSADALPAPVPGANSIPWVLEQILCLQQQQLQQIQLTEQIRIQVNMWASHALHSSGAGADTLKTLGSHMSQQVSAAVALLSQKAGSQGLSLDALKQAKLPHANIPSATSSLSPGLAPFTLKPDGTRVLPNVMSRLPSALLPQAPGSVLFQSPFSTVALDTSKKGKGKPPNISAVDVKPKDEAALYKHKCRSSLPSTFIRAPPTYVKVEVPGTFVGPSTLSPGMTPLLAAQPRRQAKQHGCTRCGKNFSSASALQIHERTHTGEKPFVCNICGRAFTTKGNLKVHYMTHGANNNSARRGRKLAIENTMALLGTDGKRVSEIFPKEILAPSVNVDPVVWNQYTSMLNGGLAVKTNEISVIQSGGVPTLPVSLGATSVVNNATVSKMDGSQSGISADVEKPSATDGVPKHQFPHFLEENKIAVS
CATCCTCG: -0.118
GGGGCTCA: -0.279
TGGCGTAA: 0.121

Other studies, line by line
PhoQ, residues 284 288 289 292 302 303 AANNSF
fold induction (PhoP, residues 12 14 15 18 19 NMSFL (Escherichia coli, UniProt P23836); Sort-seq, measured: YFP reporter; E. coli; PhoQ-PhoP variant library, with: 10 µM Mg2+; reference: high Mg2+ state, higher = stronger signaling): 7.24

For quick reference, copied from above (series 2):
R2G: 0.146
